# Assay results pooled from the literature.
# Lines come from different studies, so protocols differ. “And” joins repeats or separate records; there may be more than shown.
# Target: Phosphorylase b kinase gamma catalytic chain, liver/testis isoform (PHKG2, Homo sapiens, UniProt P15735)
Compound,assay,test system,conditions,how to read,quantity,value
CC(C)=CC1OC(C)(C)C2C=C3C(=O)C(Cl)=CC(O)C3C3C(O)C4OC4C(=O)C132 (stereo not drawn),"cell-free assay, competition with immobilised ligand",,10 µM,,remaining binding,56%
C=CC(=O)Nc1cccc(-c2cnc3[nH]cc(C(=O)NC(C)(C)C)c3n2)c1,"enzyme activity, inhibitor",,0.1 µM,,inhibition,7%
NC(=O)C[C@H]1CCc2sc3ncnc(O[C@H]4CC[C@H](N5CCOCC5)CC4)c3c21,"enzyme activity, inhibitor",,10 µM,,inhibition,-2%
O=C=[N][Ru-4]123([n]4c5ccc(O)cc5c5c6c(c7cc(F)c[n+]1c7c54)C(=O)NC6=O)[S+]1CC[S+]2CC[S+]3CC1 (stereo not drawn),enzyme activity,,"100 nM, human enzyme, together with: 10 µM ATP",baseline: untreated,remaining activity,95%
N[C@H]1CC[C@H](Nc2nccc(-c3cccnc3Oc3ccc(NC(=O)NC4CC4)c4ccccc34)n2)CC1,kinobead competition pulldown,HEK293/HCT116 lysate mixture,"10 µM, 1 h, 4 °C",lower = stronger competition,log2 LFQ intensity,24 and 23.9 and 24.1
CCN1CCN(Cc2ccc(C(=O)Nc3ccc(C)c(NCc4cnc5[nH]ccc5c4OC)c3)cc2C(F)(F)F)CC1,"binding, competition with immobilised ligand",,1 µM,,remaining binding,88%
CNC(=O)C[C@H](Cc1ccc(C#N)cc1)NC(=O)c1cc(-c2ccc(CN[C@H](C)c3ccc(C)cc3)o2)ccc1Cl,"enzyme activity, inhibitor",,1 µM,,activity vs control,96%
CN1CC[C@@H](COc2cnc(C#N)cc2-c2ccn3nc(NC(=O)C4CC4)cc3c2)C1,"inhibitor, KinaseProfiler panel",,1 µM,,inhibition,9%
C=CC(=O)N1CCc2ccc(-n3c(=O)ccc4cnc5ccc(-c6cnn(C)c6)cc5c43)cc21,KINOMEscan,,1 µM,baseline: DMSO control,remaining binding,98%
C=CC(=O)N1Cc2nc(-c3cc(-c4cc(Cl)cnc4Cl)c(F)cc3F)n(-c3ccncn3)c2C1,"cell-free assay, inhibitor",,1 µM,,inhibition,2%
CNC(=O)C1CCN(c2cc(C)c(F)cc2NC(=O)c2ccc(-c3cc(O)ccc3C)c(C)c2)CC1,"binding, competition with immobilised ligand",,1 µM,,remaining binding,97%
CCn1cc(C(=O)O)c(=O)c2c(N)c(F)c(NC3CCCCC3)cc21,kinase activity,,"0.1 µM, together with: ATP at Km",,inhibition,1.7%
COc1c(Cl)cccc1Nc1c(-c2ccncc2C#C[C@@]2(C)CCCN2C(=O)/C=C/CN(C)C)[nH]c2c1C(=O)NCC2,"cell-free assay, competition with immobilised ligand",,3 µM,,remaining binding,91%
COc1cc(Nc2nccc(-c3cnn4nc(OC)ccc34)n2)cc(C(F)(F)F)c1,"binding, competition with immobilised ligand",,1 µM,,remaining binding,100%
Cc1cccc(O[C@H]2CCC[C@@H](C(C)CNCc3ccncc3)C2)c1 (relative stereo),"enzyme activity, inhibitor",,10 µM,,inhibition,-8%

# Repeated from above:
Compound,assay,test system,conditions,how to read,quantity,value
COc1cc(Nc2nccc(-c3cnn4nc(OC)ccc34)n2)cc(C(F)(F)F)c1,"binding, competition with immobilised ligand",,1 µM,,remaining binding,100%
